Published values of several laboratories.
Every numbered part comes from another study and shows a few of its results, in no order. Positions count from the first letter of the parent shown.

Set 1 — technique: universal PBM; form: double-stranded DNA, one strand shown; sample: in vitro; tested at: not given; direction: higher = stronger binding
Target: Sal-like protein 4, full length isoform B (SALL4, Homo sapiens, UniProt Q9UJQ4-2, residues 1-616)
Notes: 8-mer, flanks averaged, mean of replicates
Sequence | E-score
AGCCCCCT | -0.24
CCCCATAA | 0.0456
ATGACAGC | 0.0259
AAACTCAC | 0.00256
TTATCGAA | 0.227
ATAGCTGA | 0.0907
CCGTGTTA | -0.113
CCCTAAAA | 0.0562
CCGTCGCC | -0.277
ATAACGGG | 0.0928
CCAATGGC | -0.16
CCAATAAA | 0.287
AGCCCTGG | -0.282
CCCGCTTC | -0.253
AATATGAC | 0.39
CGTTGATA | 0.141
AACAAAAT | 0.267
ATCATCAG | 0.147
TCATTTAA | 0.189
CGTGATCA | 0.181
ACCAAGAC | -0.00221
ACAAACAT | 0.201
AAGAAGTA | 0.0882
AGGTGTAC | 0.00526
TCCGTCCA | -0.0982

Set 2 — technique: RNA Bind-n-Seq; form: RNA; sample: in vitro; tested at: 365 nM; baseline: no-protein control; direction: higher = stronger binding
Target: RNA binding protein fox-1 homolog 2, RRM domain, GST-SBP tag (RBFOX2, Homo sapiens, UniProt O43251-10, residues 100-194)
Notes: natural RNA segment, single round, ends assumed
All sequences stand within: GGGAGUUCUACAGUCCGACGAUC … UGGAAUUCUCGGGUGCCAA
Construct (chain): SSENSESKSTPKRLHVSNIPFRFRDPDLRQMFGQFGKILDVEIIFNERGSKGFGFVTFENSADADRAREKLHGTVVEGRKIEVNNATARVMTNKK
Sequence | RBNS enrichment (R)
UGAGCCUCUCUGUGCCUUGGGCCCUAAAGCCCCAUGUGUAGUAUAGAGCAAAGGUGAUUCCUGGUGGAGAAGGGGAAAAGCCCUUCUACCCUAGAGUCAUGCCUGGAUCC | 0.168
CAUUUGUCCCCCAACCCCACUGAGAACUAAAUGCUGUACCACAGAGCCGGGUGUGAACUAUGGUUUAGAAGGUUCAAGUUUCCAAUUAAAGUCAUUGAAGAAAACUUGAA | 0.406
UAAUAAGUUGCCUGUUCCAGAAGUCUAACCCUAACCCCUCUGGUUGUCUGGGACCCCUUUCUGUGCAUGGGUGCAAUGAUUUAGCCAUGGCUGUGGGCUAUCUGGGUACA | 1
CAAGUCUGCCCUGUUUUUUUAAUUCUUUAUUCUUGUGACAGCAUUUUUGGACGUUGGAAGAGCUCAGAAGCCCAUCUUCUGCAGUUACCAAGGAAGAAAGAUCGUUCUGA | 0.514
UGGGCCUUCCCCUUCCCUCAAGCCAGGGCUCCUCCUCCUGUCGUGGGCUCAUUGUGACCACUGGCCUCUCUACAGCACGGCCUGUGGCCUGUUCAAGGCAGAACCACGAC | 0.311
UCUUUCUGUUGCUGGUUAUUGAGUGUUGAAAUUAUUGACCAAAAACCUUUCUUUAGUGAAUGUCAAAUCAGAAACAAAUUGUAGACCUAGGAACUGUAUUAAAGUUUAGU | 0.675
UUAGGUCUGUGUCCUGCACAGUGUUCAAAACCAUUAAAUGUGUUCUUUGUAGCAGGAUGGUACACAGCCAUCAGCAGAAUGAGUUAAAACCAACAAUGAAUUCAAUAUAC | 0.438
CUCGCCUCUGCAGUGAUGCUGCCUACACCUCCACCUCCUUCCCCUUCUCCCUCAGGCAACCCCGACAGACAGUGGCACUCCUGGUCCUGCUGUCUUGGUUUUGUCUUGGC | 0.511
UGUGCCACCCUGGGCUCUGUGGGCUGCACUCUGUGCCCAUGGGCACUGCUGGGUGGCCCAUCCCCCCUCACCAGGGGCAGGCACAGCACAGGGAUCCGACUUGAAUUUUC | 0.413
CUAUAAGGCUGAGGCAGAAGGUUCCAGAAUUCAAGGACACUCAGGCCUACAUAUAUAGCAAGACUGUGUCAAAAAAAAAAAAAAAAAGUUAGCAUUGCUUUAAUGGACUG | 0.698
GGUCUCAUCUGUAAGCUGCUACAGCCCAGAUGAACUCUGCCAGCCGCCAGUGCAUCCAGUACAGCGCCUGCCAUCUUGUGCAAUGUGCAACCCUGGGAUGUGAGCCCUGC | 0.219
AGGGGUUCCACUGUACUUUCCGCAUAUUACUGUGUUGUUGUUUUCCUUUGUGGAUAUAUAAGCAAAUUGAGCUUGGGUGAUUUUUAUGGAGACAAUAAUUAGACAAUACU | 1.03

Set 3 — technique: DHFR PCA, deep sequencing; sample: yeast; together with: (+)-ABA 17 µM; baseline: wild-type fitted maximum; direction: higher = stronger binding
Target: ABI1, truncated, D143A, DHFR fusion (Arabidopsis thaliana)
Notes: methotrexate growth selection, single substitutions
Starting sequence: PYL1, truncated, DHFR fusion (Arabidopsis thaliana); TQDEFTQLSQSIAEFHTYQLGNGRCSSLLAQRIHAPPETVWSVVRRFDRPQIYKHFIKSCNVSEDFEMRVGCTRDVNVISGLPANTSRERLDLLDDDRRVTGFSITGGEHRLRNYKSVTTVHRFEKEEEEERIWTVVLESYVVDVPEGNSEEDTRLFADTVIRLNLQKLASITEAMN
Substitution | relative binding score [%]
G81N | 3.09
Y141A | 1.99
E129C | 81.3
S80M | 20.8
R49F | 45.8
D96K | -1.62
E147T | 72.5
C25K | 3.62
F5V | 82.8
T86I | 50.6
T173L | 49.2
R69W | 23.6
Y18I | 49
S42R | 78.7
Q10T | 80.7
K116G | 8.21
D3G | 76.9

Set 4 — target: CCNA1, cyclin fold, Cln2 fusion (human); technique: yeast growth competition, sequencing; sample: yeast; notes: strong parent motif; baseline: not given; direction: higher = stronger binding
Starting sequence: E2F1 docking peptide (human); PPVKRRLDFETDH; partner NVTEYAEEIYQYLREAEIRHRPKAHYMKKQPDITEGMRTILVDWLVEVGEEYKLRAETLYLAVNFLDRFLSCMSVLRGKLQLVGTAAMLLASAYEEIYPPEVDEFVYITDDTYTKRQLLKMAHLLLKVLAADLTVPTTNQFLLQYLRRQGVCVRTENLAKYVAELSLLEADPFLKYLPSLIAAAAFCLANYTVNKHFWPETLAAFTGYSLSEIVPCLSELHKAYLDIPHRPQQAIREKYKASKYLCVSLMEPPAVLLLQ
Substitution | normalised enrichment score
PPVKRRLDFATDH [E10A] | 1.61
PAVKRRLDFETDH [P2A] | 2.09
PPVKRRLDQETDH [F9Q] | 0.358
PPVKRRLDFEHDH [T11H] | 1.74
PPVLRRLDFETDH [K4L] | 0.329
PPVKRILDFETDH [R6I] | 0.379
PPVKRRLDFEDDH [T11D] | 1.83
PPVKRRLDFECDH [T11C] | 1.72
PPVKRRLDHETDH [F9H] | 0.153
PPVKLRLDFETDH [R5L] | 0.215
PPVKRRLDFPTDH [E10P] | 1.3
PPVKRSLDFETDH [R6S] | 1.45
PFVKRRLDFETDH [P2F] | 1.39
PPVKRRPDFETDH [L7P] | -0.0909
PPAKRRLDFETDH [V3A] | 1.72
PTVKRRLDFETDH [P2T] | 1.77
PPVKRRLDFLTDH [E10L] | 1.21
PPVKMRLDFETDH [R5M] | 0.415
PGVKRRLDFETDH [P2G] | 2.03
PPVKRRLDFEFDH [T11F] | 2.03
PPVKRRLDFETLH [D12L] | 1.62
PPVKRREDFETDH [L7E] | 0.24
PNVKRRLDFETDH [P2N] | 1.86
PPVKRRLDFETPH [D12P] | 2.07
PPVIRRLDFETDH [K4I] | 0.724

Set 5 — target: CREBZF, bZIP domain (human); technique: DHFR protein complementation; sample: yeast; baseline: wild-type JUN-FOS pair; direction: higher = stronger binding
Notes: single substitutions, most at no-binding floor
Starting sequence: JUN, bZIP domain (human); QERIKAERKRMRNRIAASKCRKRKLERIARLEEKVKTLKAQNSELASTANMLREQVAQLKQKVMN; partner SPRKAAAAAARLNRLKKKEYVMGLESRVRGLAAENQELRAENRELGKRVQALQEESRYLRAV
Substitution | binding fitness
L52D | -1.53 natural log
S47R | -1.41 natural log
S47T | -1.49 natural log
Q55S | -1.44 natural log
A57M | -1.37 natural log
R53N | -1.49 natural log
T37V | -1.51 natural log
A46G | -1.52 natural log
A49F | -1.46 natural log
A40P | -1.53 natural log
E44M | -1.41 natural log
M51E | -1.5 natural log
K34D | -1.56 natural log
S43R | -1.47 natural log
S47K | -1.56 natural log
R30S | -1.28 natural log
I28A | -1.45 natural log

Some of these lines once more (set 5):
Substitution | binding fitness
Q55S | -1.44 natural log
A57M | -1.37 natural log
R53N | -1.49 natural log
T37V | -1.51 natural log
A46G | -1.52 natural log
A49F | -1.46 natural log
A40P | -1.53 natural log
E44M | -1.41 natural log
M51E | -1.5 natural log
K34D | -1.56 natural log
